{"data": "Published values gathered from unrelated publications", "note": "Parts stem from different laboratories: compare values within a part only."}
{"data": "Study 1", "target": "RING finger protein unkempt homolog, zinc fingers 1-6, GST-SBP tag (UNK, Homo sapiens, UniProt Q9C0B0, residues 30-357)", "technique": "RNA Bind-n-Seq", "form": "RNA", "matrix": "in vitro", "concentration": "not given", "notes": "RNA with constant flanks, human and mouse sites, ends assumed", "relative to": "input RNA pool", "direction": "higher = stronger binding", "shared flanks, not repeated": "GGGAGUUCUACAGUCCGACGAUC … CAACAGAGGAUUGAGCAUCA", "Construct (chain)": "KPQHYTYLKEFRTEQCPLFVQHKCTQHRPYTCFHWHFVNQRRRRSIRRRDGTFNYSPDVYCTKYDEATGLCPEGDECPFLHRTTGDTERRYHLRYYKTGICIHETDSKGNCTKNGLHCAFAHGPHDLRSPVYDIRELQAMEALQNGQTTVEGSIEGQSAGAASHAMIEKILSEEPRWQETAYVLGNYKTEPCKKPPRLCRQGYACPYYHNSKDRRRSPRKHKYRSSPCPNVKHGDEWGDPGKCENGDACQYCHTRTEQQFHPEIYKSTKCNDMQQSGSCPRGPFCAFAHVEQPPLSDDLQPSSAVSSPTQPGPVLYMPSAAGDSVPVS"}
{"Sequence": "UGGUCAUUUAUAGCAAUUAGAGUGGGUUGCCCCUCUACUUCUCCCAAGAAGAAAUCCCAAAUAGAUUCCUUUCAUGUCAGAUUAUACUGUUCUGAUUUUAUUUUCUAUUAUUUUUACAUA", "bound/input enrichment [ratio]": 20}
{"Sequence": "AUUAUAUAUGAUCGUUUUUCUGAUCCUAAGUUUGUUGAGCAGUUAAUCACAUUUCUAUCUUUAGAAGACAGAAAAGGAAGAGAUAAGUUUAGUCCCCGGCGUUUCUGCCUCUUUAAGGGU", "bound/input enrichment [ratio]": 0.192}
{"Sequence": "UGUUGCUGCCUUUAUGGACAUGGGUACCAAUUGCUUUUGUAAUAUGGUAAAAAUGUGAGCUAGCACUUCUGCGUUCCUUUUGAUUUUUUUUUUUUAACAUGUAUUCAGAUUGAGAAAUAU", "bound/input enrichment [ratio]": 0.624}
{"Sequence": "AACCACUUACUACCAGGCCUUUUUCUGUGUCCACUGGAGAGCUUGAGCUCACACUCAAAGAUCAGAGGACCUACAGAGAGGGCUCUUUGGUUUGAGGACCAUGGCUUACCUUUCCUGCCU", "bound/input enrichment [ratio]": 0.0893}
{"Sequence": "CUUCCGCCUGAGCCCCGGAAGGGUGAUGUGGCUGCGGCAUCGCCGGCCUCGCUAUGUCUGCCAUUUUCAAUUUUCAGAGUCUAUUGACUGUAAUCUUGCUGCUUAUAUGUACCUGUGCUU", "bound/input enrichment [ratio]": 0.182}
{"Sequence": "GAAAGGGCUAAACUGAUUUCCUUGCCAACUAGUAAAAACUGGACCUUCGGACCCCAGGACGUCGAUGAACUGAUCUUCAUGCUGAGCGACAGCCCUGGGGUCAUGUGCCGGCCUUCCCGA", "bound/input enrichment [ratio]": 0.274}
{"Sequence": "GCCAGCCACUCGGAGCUAAUCCACAACCUCCGCAAGAAUGGAAUCAUCAAGACAGAUAAAGUAUUUGAAGUGAUGCUGGCUACAGACCGUUCCCACUAUGCAAAAUCUAACCCUUACAUG", "bound/input enrichment [ratio]": 0.124}
{"Sequence": "AUUUUUCAUUUUGUUUGUUCUAAGAGGAUUGAAAAUCAGUUUAGUUUAAAUGUCUUUCUGUUAGGCCUUUCUUUCUUACAAUGAAGAGAUGAUUCUUCUAGUUUAUGGUUAAAAGUUUUU", "bound/input enrichment [ratio]": 4.55}
{"data": "Study 2", "target": "RNA binding protein fox-1 homolog 2, RRM domain, GST-SBP tag (RBFOX2, Homo sapiens, UniProt O43251-10, residues 100-194)", "technique": "RNA Bind-n-Seq", "form": "RNA", "matrix": "in vitro", "concentration": "365 nM", "notes": "natural RNA segment, single round, ends assumed", "relative to": "no-protein control", "direction": "higher = stronger binding", "shared flanks, not repeated": "GGGAGUUCUACAGUCCGACGAUC … UGGAAUUCUCGGGUGCCAA"}
{"Sequence": "UUUCAUGAGCAACUCAUUCCUAGAGUUCAUUGUUUGCAUGGGUUUCUCACAAGCGUCCUUCCUCAUAGGAAGGCUCAUCAACUGAAUUUAGUGACAUGUACACAGUAGAU", "RBNS enrichment (R)": 0.51}
{"Sequence": "UGUAUGGAUACUGGGUUGGGCCUUGGGUUUUACUCACUUUCAGUAUAGCUUGCCAGUAUUGUUAAGGUAUCCAAAGCCUUUCUAGAUAGAGACAGGAACAUUGACUUGAA", "RBNS enrichment (R)": 0.442}
{"Sequence": "CGAGGUCCUCACUUCCAGGAGCCUGUCCUUGCAAGAUGCAAUCAUCGUUCCUGCUUUUUCAUUGUCAUUAAAUUCUGUAGAAACCCAUUGUCAUUAGCUCCAAGUGUAAA", "RBNS enrichment (R)": 0.679}
{"Sequence": "GAUCAGAGGUGUGCACCACCACUGCCCAGCUUGAAGUGUGUCAUUUAAAACCACUGUUUAAUAACCCUACAGACAUGAAUCUGGAUAAUGCUAGGUAUAAACUUGUGGCA", "RBNS enrichment (R)": 1.04}
{"Sequence": "UUUGAAACAAGGAAGCUGCGCUCUGUCAUGUGCUGCCUUUUUUAUUUAUUCAGGCUAAACCUACAAUAUGUGAAUCAACCCGUUUAAUGAAUCCUGGGACAUGCUGAUGA", "RBNS enrichment (R)": 0.555}
{"Sequence": "GUGUGUUUUGUUAAUACAAGAGGCCGGGUUUGGGGCUUGUGUUUGUCAAUAAACUCUUUGGCGCUGGUUCCUUGGUUUUCUUGUGCUGUGAGGUUGGCAGUUAACUAACU", "RBNS enrichment (R)": 0.618}
{"Sequence": "UGCACUGAGCAGGAACAUUGAAGAGUUGGGUGGUCGCACUGGUGUUAGCUGAAGAUGGGAAAGACUCAAGCCAUUGGGGUAAAGAUAACCAGAUUGAUCCAAUUGGCCAU", "RBNS enrichment (R)": 1.15}
{"Sequence": "CGAAAGCCCCCUCUUCAACUCCUCUCACUUUUUAAAGCAUUGAUAUUAGUAUCUUCUCAGAUACAGACCGUUUUAUGAUUUUUUAAAAAGUAAAAGUUCUAAAAUGAAGU", "RBNS enrichment (R)": 0.47}
{"data": "Study 3", "target": "Histone acetyltransferase KAT6A, winged helix 1, GST fusion (KAT6A, Homo sapiens, UniProt Q92794, residues 1-85)", "technique": "protein binding microarray", "form": "double-stranded DNA, one strand shown", "matrix": "in vitro", "concentration": "not given", "notes": "8-mer, flanks averaged, mean of 2 arrays, mostly near background", "relative to": "not given", "direction": "higher = stronger binding", "Target sequence (chain)": "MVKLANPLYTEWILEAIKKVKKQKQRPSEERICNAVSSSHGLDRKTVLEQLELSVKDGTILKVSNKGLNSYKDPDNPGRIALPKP"}
{"Sequence": "CAAATTGA", "E-score": -0.238}
{"Sequence": "ACCACGCA", "E-score": 0.00685}
{"Sequence": "CGATTACC", "E-score": 0.141}
{"Sequence": "GCAGAAAC", "E-score": -0.00745}
{"Sequence": "CATTTGTC", "E-score": -0.253}
{"Sequence": "AATAGAGA", "E-score": -0.108}
{"Sequence": "GTATAGGA", "E-score": -0.0686}
{"Sequence": "AAGAGTCG", "E-score": -0.102}
{"Sequence": "CTATCAAC", "E-score": 0.0219}
{"Sequence": "GCCCAAGA", "E-score": -0.135}
{"Sequence": "ACCCTGCC", "E-score": -0.0948}
{"Sequence": "AGTTGGCA", "E-score": -0.237}
{"Sequence": "AAGGAATC", "E-score": -0.0942}
{"Sequence": "CCGGGACG", "E-score": 0.322}
{"Sequence": "CTCGAGTA", "E-score": -0.0951}
{"Sequence": "CCCTAGCC", "E-score": -0.0576}
{"Sequence": "CGCCCCAA", "E-score": 0.108}
{"Sequence": "CGTATTCA", "E-score": 0.177}
{"data": "Study 4", "target": "Prothrombin, mature alpha-thrombin (F2, Homo sapiens, UniProt P00734)", "technique": "aptamer microarray, sandwich", "form": "DNA with 2'F-ANA", "matrix": "in vitro", "concentration": "200 nM", "notes": "whole 15-mer aptamer, many near background", "together with": "Cy3 exosite-II aptamer, 400 nM", "direction": "higher = stronger binding", "sequence": "GGTTGGTGTGGTTGG"}
{"Modification": "2'F-ANA at 1 3 4 5 9 10 11 13 14", "mean fluorescence intensity [a.u.]": 45.2}
{"Modification": "2'F-ANA at 1 3 7 8 9 13", "mean fluorescence intensity [a.u.]": 288}
{"Modification": "2'F-ANA at 1 2 4 9 11 13 14 15", "mean fluorescence intensity [a.u.]": 48.5}
{"Modification": "2'F-ANA at 1 2 3 4 5 6 7 8 12", "mean fluorescence intensity [a.u.]": 118}
{"Modification": "2'F-ANA at 2 3 5 7 13 14 15", "mean fluorescence intensity [a.u.]": 71.4}
{"Modification": "2'F-ANA at 2 5 7 8 10 14", "mean fluorescence intensity [a.u.]": 48}
{"Modification": "2'F-ANA at 1 2 3 5 6 7 9", "mean fluorescence intensity [a.u.]": 61.6}
{"Modification": "2'F-ANA at 3 6 10 12 15", "mean fluorescence intensity [a.u.]": 577}
{"Modification": "2'F-ANA at 4 5 7 9 10 11 13 14 15", "mean fluorescence intensity [a.u.]": 53}
{"Modification": "2'F-ANA at 1 2 5 6 7 9 10 11", "mean fluorescence intensity [a.u.]": 47.7}
{"Modification": "2'F-ANA at 1 6 9 10 12 15", "mean fluorescence intensity [a.u.]": 71.7}
{"Modification": "2'F-ANA at 1 2 3 5 6 9 10 11 14 15", "mean fluorescence intensity [a.u.]": 60.2}
{"Modification": "2'F-ANA at 4 5 8 9 10 11 12 14", "mean fluorescence intensity [a.u.]": 45.3}
{"Modification": "2'F-ANA at 1 2 3 4 6 8 9 10 11 12 14 15", "mean fluorescence intensity [a.u.]": 53.8}
{"Modification": "2'F-ANA at 2 5 7 8 9 10 12 14", "mean fluorescence intensity [a.u.]": 51.9}
{"Modification": "2'F-ANA at 2 5 6 7 10 11 13 14 15", "mean fluorescence intensity [a.u.]": 48.5}
{"Modification": "2'F-ANA at 1 2 3 4 5 6 8 14 15", "mean fluorescence intensity [a.u.]": 65.3}
{"Modification": "2'F-ANA at 1 4 5 11 15", "mean fluorescence intensity [a.u.]": 54.7}
{"Modification": "2'F-ANA at 1 5 6 7 8 11 12 13 14 15", "mean fluorescence intensity [a.u.]": 48.3}
